Measured values gathered from unrelated publications.
Every numbered part comes from another study and shows a few of its results, in no order. Substitutions count along the parent as printed.

Set 1 — technique: protein binding microarray; form: double-stranded DNA, one strand shown; medium: in vitro; concentration: not given; relative to: not given; direction: higher = stronger binding
Target: Histone acetyltransferase KAT6A, winged helix 1, GST fusion (KAT6A, Homo sapiens, UniProt Q92794, residues 1-85)
Notes: 8-mer, flanks averaged, mean of 2 arrays, mostly near background
Construct (chain): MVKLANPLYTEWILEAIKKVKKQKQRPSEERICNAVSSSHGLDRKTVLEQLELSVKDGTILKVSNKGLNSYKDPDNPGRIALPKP
| Strand | E-score |
| --- | --- |
| AAATCACA | -0.227 |
| GCAACCCA | -0.0814 |
| GAAGAAGA | -0.176 |
| AAAAGAAC | -0.106 |
| AAGTAGCC | -0.0104 |
| AGGTTATA | -0.167 |
| ACCGATTG | 0.00095 |
| GAATTAAA | -0.156 |
| ATCCTCGC | 0.0914 |
| AGCAGGTA | -0.035 |
| CGAGGTTC | 0.00618 |
| CCTTAAAC | 0.0486 |
| ATATTACG | 0.149 |
| CCAGTAAC | 0.102 |
| ACAGTCAG | -0.0281 |
| GGTTCCGA | 0.0305 |
| GATGCTGC | -0.0793 |
| AAAGAGCC | -0.000965 |

Set 2 — technique: RNA Bind-n-Seq; form: RNA; medium: in vitro; concentration: 1 µM; notes: whole 134-nt RNA, ends assumed; with: 150 mM KCl; relative to: input library; direction: higher = stronger binding
Target: Ras GTPase-activating protein-binding protein 1, RRM domain (G3BP1, Homo sapiens, UniProt Q13283)
Sequence of UniProt Q13283 (whole entry, looked up): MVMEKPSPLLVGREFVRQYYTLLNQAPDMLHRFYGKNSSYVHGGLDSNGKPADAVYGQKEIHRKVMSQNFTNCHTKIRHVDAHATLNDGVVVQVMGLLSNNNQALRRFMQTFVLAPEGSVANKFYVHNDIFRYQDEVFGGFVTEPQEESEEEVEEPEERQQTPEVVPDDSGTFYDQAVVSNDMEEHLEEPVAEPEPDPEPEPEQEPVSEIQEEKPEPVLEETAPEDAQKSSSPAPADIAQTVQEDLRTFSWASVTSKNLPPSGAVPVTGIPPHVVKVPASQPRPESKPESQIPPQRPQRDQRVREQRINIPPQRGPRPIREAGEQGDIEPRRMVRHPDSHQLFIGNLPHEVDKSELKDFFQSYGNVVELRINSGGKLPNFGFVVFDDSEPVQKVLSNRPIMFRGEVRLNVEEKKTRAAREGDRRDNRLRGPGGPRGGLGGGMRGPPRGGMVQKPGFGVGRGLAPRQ
Constant ends, left off below: GGGAGUUCUACAGUCCGACGAUC … UGGAAUUCUCGGGUGUCAAGG
| Strand | log2 enrichment |
| --- | --- |
| CCUCAAGUCCUGUGCUACACAUCGUAUGUACCGAAUCGGGGUGGUGGGGUGGAAAGUAUUAUGUUACGCCGUUCGGAUCUGCACUUCCAG | -0.313 |
| ACCAUGCAGGUGGGCAUCUUUGGGAAGUGGGGCAAGGGGGGGAUAGGGAGGGGGGUAACACUUUGGGAACAGGUGGUCCCAGGUCAUUUC | 0.881 |
| AGUCCUGUGCUACACAUCGUAUGUACCGAAUCGGCCCCCGGGCCCCCGGGCCCCCGGAAAGUAUUAUGUUACGCCGUUCGGAUCUGCACU | -0.603 |
| AGUCCUGUGCUACACAUCGUAUGUACCGAAUCGGAAAAAAAGGAAAAAAAGGUUUGGAAAGUAUUAUGUUACGCCGUUCGGAUCUGCACU | -0.231 |
| UGGCCCUGGUGGCAUGCGGGGAGGAAGAUGUGGCCUCAUGGAUCGUGGUGGUCCCGGUGGAAUGUUCAGAGGUGGCCGUGGUGGAGACAG | 0.822 |
| CCCAUCAUGUUCAGAGGUGAGGUCCGUCUGAAUGUCGAAGAGAAGAAGACUCGAGCUGCCAGGGAAGGCGACCGACGAGAUAAUCGCCUU | -0.303 |
| UGGGAGGUGGAUUUUGUUUAUUUUUUUAGCUCAUUUCCAGGGGUGGGAAUUUUUUUUUAAUAUGUCUCAUGAAUAAAGUUGUUUUUGAAA | 0.96 |
| UCCUGUGCUACACAUCGUAUGUACCGAAUCGGGAAAAAAAGGGUUUGGGAAAAAAAGGGAAAGUAUUAUGUUACGCCGUUCGGAUCUGCA | -0.00899 |
| AGUCCUGUGCUACACAUCGUAUGUACCGAAUCGGGCCCCGGGGCCCCGGCCCCGGGGAAAGUAUUAUGUUACGCCGUUCGGAUCUGCACU | -1.2 |
| UGGUGGACAGAAGGCACUGCAGCCUGAAAUGGCAGAGUCUGGUGCUGACGAUCCGCGAGAAGAUCAAUGCUGCCAUCCAGGACAUGCCAG | -0.488 |
| CACAGACAACACGCACCCACACAGACACAGAGGGAAGGGGUUGGGAUGGGGACAGGGUGCACAGCAGGGAGGGGUAGGACCCCAGCCCCU | -0.336 |
| AAGUCCUGUGCUACACAUCGUAUGUACCGAAUCGGGCCCGGGGCCCGGGCCCGGGGAAAGUAUUAUGUUACGCCGUUCGGAUCUGCACUU | -0.716 |
| AGUCCUGUGCUACACAUCGUAUGUACCGAAUCGGGUUUUUGGUUUUUGGUUUUUGGGGAAAGUAUUAUGUUACGCCGUUCGGAUCUGCAC | -0.242 |
| CUCAAGUCCUGUGCUACACAUCGUAUGUACCGAAUCGGGGAGGGAGGGGAGGGGAAAGUAUUAUGUUACGCCGUUCGGAUCUGCACUUCC | 0.885 |

Set 3 — target: CCNF, cyclin fold, Cln2 fusion (human); technique: yeast growth competition, sequencing; medium: yeast; notes: strong parent motif; relative to: not given; direction: higher = stronger binding
Starting sequence: USP37 docking peptide (human); PSAKRSLGFLPQP
| Change | normalised enrichment score |
| --- | --- |
| S6A | 4.6 |
| L10A | 4.66 |
| L7A | 0.531 |
| S2A | 3.28 |
| Q12A | 4.1 |
| F9A | -0.102 |

Set 4 — technique: RNA Bind-n-Seq; form: RNA; medium: in vitro; concentration: 365 nM; relative to: no-protein control; direction: higher = stronger binding
Target: RNA binding protein fox-1 homolog 2, RRM domain, GST-SBP tag (RBFOX2, Homo sapiens, UniProt O43251-10, residues 100-194)
Notes: natural RNA segment, single round, ends assumed
Constant ends, left off below: GGGAGUUCUACAGUCCGACGAUC … UGGAAUUCUCGGGUGCCAA
Construct (chain): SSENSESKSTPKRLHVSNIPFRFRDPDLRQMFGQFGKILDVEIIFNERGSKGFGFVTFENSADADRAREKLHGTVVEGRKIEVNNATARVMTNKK
| Strand | RBNS enrichment (R) |
| --- | --- |
| GCCUGGUCUGUAUUUAAAGCUUUUGAGACCCAAUAAAAUAGUACCUGCUGUCUGCAGCCUUACUGUCGUGGUGGAGCCAGAACACUGUGUUCCUGACCCCAGCCAGGGGG | 0.312 |
| AUACCCACCGCCCAGCUUCUCCCUGAGGGCCCACCAGCCUGUGCUGCAUACCCACCGCCCAGCUUCUCCCUGAGGGCCCACCAGCCUGUGCUGUACACCCCGUUAGUCCC | 1.11 |
| UGCCCCUGUUGGCCACAGCUUAUGGGCCCUGCCCUCUUUCUUCACACCAGCCCCUUGGCCAGCCUGCCGCAGGCAUCUCAGGGCCAUGCAGAUCCCAGGCUGUGGAUUAC | 0.546 |
| CCCGUACAAGCCACGCUGGCUGCUCAAGUACUAGCACCCCUCUCAGGCCCGACCUUGAUGUCCACCUCCACAGCCUGGGCUUCUGCCUGGAGCCUGGCAGCCACAGACAU | 0.423 |
| GGGUGGCUUUUGGUUUUUGUUUCUUUCUUGUCUUGUCUUUUAUUGAAAGGAAAUCAAAAAUAGGCUAAACAGAAUUUUGAGGGCAUGGCCCAAAUAACUCAUGAGUUCCA | 2.03 |
| CCUUUUAGCUAAAGACAUUCAUUACUAUAGCACUUCCCAGGCAUUGAAGAGGCAGAGUGAUUUAGAGAACGAAAUCAGAACCUGGGAACACCAUGACUACUUCAUUUCUA | 0.468 |
| CCUCAGUCUUCUUGUAUAAUGCCUUUCCAUGGAUUGGCAUCCUGCCUUUUGGAAAACAUCAACAGCUGUUUAGAAAUGCAGCUGUAGUCUAUGAUUUUCUCUCCAGACUC | 0.335 |
| UCCAUGCACAGGCCCAAGAGUCACCUCCAAUGAAAUAAAUGUAAUACUGAAGUAUGCCAUGAUGUUUGUUGUUUUCUUUCAUCGUAAGCCUGUAAGCAGGAAAAAUACGU | 0.351 |
| ACAAGAACCUUUGCUUUCCUUAGACUUGUUCUGCAUUUUAUUUUUUAUUUCUCACCAAAAUAAAAGCAUUUAUGAGAAUUAUAAGUAAAGCUUUCUGUAUUUCAGAGAGA | 0.413 |
| CCCACAAAGAGCCCAUCUGAGAGAAGGACGUGGUGGAGCCAGGACGGGAAAGCGUCCUGUCGGCUGGCCAUGCUGUUGCUUGCGUCUCGAAUCUUCGGUUCUCGAGGAAG | 1.08 |
| CUGAUUAUGUCUUCACAGACUGGCUCAGGUUCUUCACGAAGAAGAUGGCCUUUGUGGGAUUUAAUUCGGGGUUUGCUCAUCCCUUUACUUUAGGUGGAACUAUUUUCAGU | 0.31 |
| ACGGAUGUUGUCAGGAAUCAUGAUCUGACUUUAAUUGUGUGUCUUCUAUUAUAACUGCAUAGUAAUAGGGCCCUUAGCUCUCCCGUAGUCAGCGCAGUUUAGCAGUUAAA | 0.572 |

Set 5 — technique: protein-binding microarray; form: double-stranded DNA, one strand shown; medium: in vitro; concentration: 2200 nM top; notes: 60-bp whole probe; with: salmon DNA 0.4 mg/ml; relative to: random background probes; direction: higher = stronger binding; constant ends, left off below: GCCTAGCAC … GTCTTGATTCGCTTGACGCTGCTG
Target: Interferon regulatory factor 7, full length, phosphomimetic (IRF7, Homo sapiens, UniProt Q92985, residues 1-503, S471D/S472D/S475D/S476D/S477D/S483D/S484D/S487D)
Sequence of UniProt Q92985 (whole entry, unmodified, looked up): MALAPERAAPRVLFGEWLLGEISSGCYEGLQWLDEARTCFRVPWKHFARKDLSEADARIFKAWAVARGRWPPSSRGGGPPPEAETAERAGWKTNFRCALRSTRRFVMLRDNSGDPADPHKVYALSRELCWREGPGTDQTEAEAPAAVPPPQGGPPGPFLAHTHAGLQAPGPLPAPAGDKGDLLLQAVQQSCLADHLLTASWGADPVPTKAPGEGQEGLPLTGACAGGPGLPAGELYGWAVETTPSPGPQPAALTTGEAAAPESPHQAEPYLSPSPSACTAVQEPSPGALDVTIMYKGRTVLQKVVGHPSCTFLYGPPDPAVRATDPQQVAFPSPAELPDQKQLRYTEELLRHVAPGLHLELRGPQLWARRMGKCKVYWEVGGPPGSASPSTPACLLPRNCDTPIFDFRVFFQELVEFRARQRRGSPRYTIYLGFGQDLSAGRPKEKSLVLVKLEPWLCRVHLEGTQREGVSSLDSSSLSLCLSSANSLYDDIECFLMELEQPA
| Strand | fitted relative affinity |
| --- | --- |
| TTGTGTTTTCATTTTATGACGTGCTAG | 4.77 z-score |
| ATATACCTGAATATCTTCAGGTGCTAG | 0.579 z-score |
| GACGGTTTCGCCACTGGGGACGTGCTA | 1.58 z-score |
| TCATGTCTGGATGTGCCACTGTGCTAG | 0.716 z-score |
| TTAGGTATCAGTCTCGATTAGTGCTAG | 0.374 z-score |
| CCACATCTCTGTCCGTGCTCGTGCTAG | 1.86 z-score |
| TTCGGACTGGACACTGGGTTAGTGCTA | -0.272 z-score |
| TTAGGACTGGACTATCGGGTAGTGCTA | -0.585 z-score |
| CTGTTTTTCCCCTGCACTCAGTGCTAG | 2.79 z-score |
| TTAGGTTTCGCACTGGGTTAGTGCTAG | 3.2 z-score |
| TCCTCTTTACTGCTCCACACGTGCTAG | 2.41 z-score |

Some of these lines once more (set 1):
| Strand | E-score |
| --- | --- |
| ACAGTCAG | -0.0281 |
| AAATCACA | -0.227 |
| AGCAGGTA | -0.035 |
| GCAACCCA | -0.0814 |
| AGGTTATA | -0.167 |
